{"data": "Assay results collected from several papers", "gag-pol integrase": "Gag-Pol polyprotein, integrase (gag-pol, Human immunodeficiency virus 1, UniProt P12497)", "BCHE": "Cholinesterase (BCHE, Homo sapiens, UniProt P06276)", "gag-pol integrase with LEDGF/p75": "Gag-Pol polyprotein, integrase with LEDGF/p75 (gag-pol, Human immunodeficiency virus 1, UniProt P12497)", "ilvC": "Ketol-acid reductoisomerase (NADP(+)) (ilvC, Mycobacterium tuberculosis, UniProt P9WKJ7)", "note": "Lines come from different studies, so protocols differ. ± marks the error that the study gave.", "UniProt P06276, sequence (whole entry, looked up)": "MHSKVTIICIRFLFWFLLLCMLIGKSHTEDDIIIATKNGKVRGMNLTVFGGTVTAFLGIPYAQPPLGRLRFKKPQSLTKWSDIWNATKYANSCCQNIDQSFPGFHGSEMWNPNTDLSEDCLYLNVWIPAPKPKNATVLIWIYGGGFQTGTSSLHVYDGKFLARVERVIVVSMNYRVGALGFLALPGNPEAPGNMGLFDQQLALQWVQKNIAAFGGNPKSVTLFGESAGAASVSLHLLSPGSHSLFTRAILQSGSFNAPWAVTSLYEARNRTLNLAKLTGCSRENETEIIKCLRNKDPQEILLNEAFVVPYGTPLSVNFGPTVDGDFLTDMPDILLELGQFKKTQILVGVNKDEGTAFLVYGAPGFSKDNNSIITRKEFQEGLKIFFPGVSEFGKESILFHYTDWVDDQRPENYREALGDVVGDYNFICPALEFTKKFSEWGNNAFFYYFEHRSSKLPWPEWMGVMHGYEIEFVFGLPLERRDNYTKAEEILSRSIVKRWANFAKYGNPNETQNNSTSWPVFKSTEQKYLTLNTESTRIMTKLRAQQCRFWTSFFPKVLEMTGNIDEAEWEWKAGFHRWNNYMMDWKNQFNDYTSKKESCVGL", "UniProt P9WKJ7, sequence (whole entry, looked up)": "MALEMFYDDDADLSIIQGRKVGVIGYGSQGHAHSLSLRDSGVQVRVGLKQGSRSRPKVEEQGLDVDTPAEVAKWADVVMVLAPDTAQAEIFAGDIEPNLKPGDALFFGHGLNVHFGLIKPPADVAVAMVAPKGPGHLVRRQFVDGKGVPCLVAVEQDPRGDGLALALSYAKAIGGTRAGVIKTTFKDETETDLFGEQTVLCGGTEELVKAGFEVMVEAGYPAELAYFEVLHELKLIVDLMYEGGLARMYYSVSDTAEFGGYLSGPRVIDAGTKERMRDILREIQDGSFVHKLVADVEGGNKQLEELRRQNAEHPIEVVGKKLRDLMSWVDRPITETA", "UniProt P00797, sequence (whole entry, looked up)": "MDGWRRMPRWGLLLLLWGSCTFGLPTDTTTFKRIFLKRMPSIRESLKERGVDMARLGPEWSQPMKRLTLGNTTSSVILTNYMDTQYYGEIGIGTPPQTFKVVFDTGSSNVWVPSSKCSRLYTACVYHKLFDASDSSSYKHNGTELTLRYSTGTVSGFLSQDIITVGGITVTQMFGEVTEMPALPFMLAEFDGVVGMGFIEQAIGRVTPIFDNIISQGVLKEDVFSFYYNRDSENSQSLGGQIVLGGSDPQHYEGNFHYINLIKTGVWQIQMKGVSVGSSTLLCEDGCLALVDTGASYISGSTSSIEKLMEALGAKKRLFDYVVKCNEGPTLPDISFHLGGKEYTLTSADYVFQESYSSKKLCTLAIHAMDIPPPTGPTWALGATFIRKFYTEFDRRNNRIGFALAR", "UniProt P35462, sequence (whole entry, looked up)": "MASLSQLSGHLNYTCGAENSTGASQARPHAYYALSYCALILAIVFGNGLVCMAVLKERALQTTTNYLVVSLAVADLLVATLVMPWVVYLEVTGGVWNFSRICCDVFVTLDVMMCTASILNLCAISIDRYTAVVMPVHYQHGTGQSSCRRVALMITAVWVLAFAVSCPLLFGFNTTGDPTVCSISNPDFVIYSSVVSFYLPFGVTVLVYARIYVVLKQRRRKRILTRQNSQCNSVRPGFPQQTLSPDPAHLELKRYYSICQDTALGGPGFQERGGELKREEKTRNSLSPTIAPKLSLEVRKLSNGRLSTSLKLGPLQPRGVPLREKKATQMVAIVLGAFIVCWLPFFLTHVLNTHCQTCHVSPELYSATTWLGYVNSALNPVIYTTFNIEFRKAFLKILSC", "UniProt P35367, sequence (whole entry, looked up)": "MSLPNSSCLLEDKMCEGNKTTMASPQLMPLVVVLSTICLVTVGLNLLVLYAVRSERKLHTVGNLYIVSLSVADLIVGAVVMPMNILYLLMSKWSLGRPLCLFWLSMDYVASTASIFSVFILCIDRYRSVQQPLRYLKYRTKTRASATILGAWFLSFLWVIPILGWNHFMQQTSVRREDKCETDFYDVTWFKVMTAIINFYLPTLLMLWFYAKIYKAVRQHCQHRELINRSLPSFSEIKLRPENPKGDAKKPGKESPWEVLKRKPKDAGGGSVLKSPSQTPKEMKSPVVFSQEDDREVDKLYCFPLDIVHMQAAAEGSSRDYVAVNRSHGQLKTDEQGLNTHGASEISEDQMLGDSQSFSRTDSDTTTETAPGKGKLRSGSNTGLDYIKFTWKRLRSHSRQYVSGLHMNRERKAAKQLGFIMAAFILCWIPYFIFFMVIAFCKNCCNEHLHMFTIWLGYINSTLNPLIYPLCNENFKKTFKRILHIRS", "UniProt Q9UIA9, sequence (whole entry, looked up)": "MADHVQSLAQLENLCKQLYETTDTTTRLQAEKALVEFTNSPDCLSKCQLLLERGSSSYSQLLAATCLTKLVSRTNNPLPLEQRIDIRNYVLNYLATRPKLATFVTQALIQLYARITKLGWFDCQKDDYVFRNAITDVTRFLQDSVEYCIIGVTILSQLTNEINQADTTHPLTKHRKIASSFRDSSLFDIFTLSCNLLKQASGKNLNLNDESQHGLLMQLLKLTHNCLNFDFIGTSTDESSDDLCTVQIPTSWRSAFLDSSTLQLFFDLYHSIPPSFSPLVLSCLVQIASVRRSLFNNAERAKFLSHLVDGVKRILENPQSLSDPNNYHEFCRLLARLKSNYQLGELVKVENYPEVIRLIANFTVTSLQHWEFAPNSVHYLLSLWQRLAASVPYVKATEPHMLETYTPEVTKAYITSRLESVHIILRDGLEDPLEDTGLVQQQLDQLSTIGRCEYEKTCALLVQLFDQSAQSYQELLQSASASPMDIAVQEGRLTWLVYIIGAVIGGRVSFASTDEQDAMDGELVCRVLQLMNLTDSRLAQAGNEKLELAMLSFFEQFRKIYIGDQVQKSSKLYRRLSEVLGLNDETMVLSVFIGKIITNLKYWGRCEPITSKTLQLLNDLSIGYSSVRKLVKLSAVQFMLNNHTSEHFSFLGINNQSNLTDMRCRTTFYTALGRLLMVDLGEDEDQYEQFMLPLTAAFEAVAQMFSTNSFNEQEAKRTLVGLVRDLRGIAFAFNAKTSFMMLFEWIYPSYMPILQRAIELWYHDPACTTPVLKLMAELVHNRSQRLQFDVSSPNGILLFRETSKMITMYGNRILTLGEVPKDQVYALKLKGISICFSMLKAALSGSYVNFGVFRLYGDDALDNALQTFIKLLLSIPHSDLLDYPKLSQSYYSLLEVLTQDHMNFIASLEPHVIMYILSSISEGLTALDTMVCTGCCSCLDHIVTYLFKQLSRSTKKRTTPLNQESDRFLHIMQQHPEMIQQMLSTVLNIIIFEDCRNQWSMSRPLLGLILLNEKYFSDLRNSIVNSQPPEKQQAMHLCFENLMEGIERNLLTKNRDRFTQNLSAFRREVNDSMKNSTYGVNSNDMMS"}
{"SMILES": "O=C1C(O)=Cc2ccccc2/C1=N\\Nc1ccc(Cl)cc1", "tested on": "gag-pol integrase", "assay": "3'-processing activity, inhibitor", "setting": "wild-type integrase", "measurement": "IC50", "value": "> 100 µM"}
{"SMILES": "CN(C)CC[C@@H](c1ccc(Cl)cc1)c1ccccn1", "tested on": "Plasmodium falciparum", "system": "GB4", "measurement": "IC50", "value": "1 µM"}
{"SMILES": "CCCN(CCC)CCc1c[nH]c2ccccc12", "tested on": "BCHE", "assay": "inhibitor, fluorometric", "measurement": "IC50", "value": "4.06 ± 2.51 µM"}
{"SMILES": "COc1c(Cl)cc(Cl)cc1/C=N/NC(=O)c1ccncc1", "tested on": "gag-pol integrase with LEDGF/p75", "assay": "LEDGF/p75-integrase interaction, inhibitor, AlphaScreen", "measurement": "IC50", "value": "> 50 µM"}
{"SMILES": "Cc1cccc(S(=O)(=O)N2CCC[C@@H]2CCN2CCC(C)CC2)c1", "tested on": "BCHE", "assay": "inhibitor, fluorometric", "measurement": "IC50", "value": "3.87 ± 1.41 µM"}
{"SMILES": "NNC(=O)c1cc(-c2ccc(Cl)cc2)n[nH]1", "tested on": "gag-pol integrase with LEDGF/p75", "assay": "LEDGF/p75-integrase interaction, inhibitor, AlphaScreen", "measurement": "IC50", "value": "> 50 µM"}
{"SMILES": "C[C@H]1CN(c2n[nH]c3nc(N[C@H]4CC[C@H](NS(=O)(=O)CCC(F)(F)F)CC4)ncc23)CCO1", "tested on": "Exportin-7 (Homo sapiens, UniProt Q9UIA9)", "assay": "biochemical", "measurement": "IC50", "value": "≥ 20 µM"}
{"SMILES": "COc1ncccc1-c1cnn2ccc(N3CCN(C(=O)OC(C)C)CC3)nc12", "tested on": "HRH1 (Homo sapiens, UniProt P35367)", "assay": "liability screen", "measurement": "IC50", "value": "> 30 µM"}
{"SMILES": "CCC1=C[C@@H]2CN3CCc4c([nH]c5ccccc45)[C@@](C(=O)OC)(C2)[C@@H]13", "tested on": "BCHE", "assay": "inhibitor", "measurement": "IC50", "value": "1.23 ± 0.17 µM"}
{"SMILES": "O=c1[nH]c2sc(-c3ccncc3)nc2c(=O)n1O", "tested on": "ilvC", "assay": "inhibitor", "setting": "30 min preincubation, added: NADPH", "measurement": "Ki", "value": "23.9 ± 6.3 µM"}
{"SMILES": "CC/N=c1/scc(-c2ccc(Br)cc2)n1/N=C/c1ccc(O)c(O)c1O", "tested on": "gag-pol integrase with LEDGF/p75", "assay": "LEDGF/p75-integrase interaction, inhibitor, AlphaScreen", "measurement": "IC50", "value": "< 25 µM"}
{"SMILES": "CC[C@]1(O)C[C@H]2CN(CCc3c([nH]c4ccccc34)[C@@](C(=O)OC)(c3cc4c(cc3OC)N(C=O)[C@H]3[C@@](O)(C(=O)OC)[C@H](OC(C)=O)[C@]5(CC)C=CCN6CC[C@]43[C@@H]65)C2)C1", "tested on": "Plasmodium falciparum", "system": "D10", "measurement": "IC50", "value": "0.501 µM"}
{"SMILES": "COc1ccccc1NS(=O)(=O)c1ccc(N/N=C(\\C)c2ccccc2Br)c([N+](=O)[O-])c1", "tested on": "gag-pol integrase", "assay": "strand transfer activity, inhibitor", "setting": "wild-type integrase", "measurement": "IC50", "value": "> 100 µM"}
{"SMILES": "Cc1nc2[nH]c(=O)n(O)c(=O)c2[nH]1", "tested on": "ilvC", "assay": "inhibitor", "setting": "30 min preincubation, added: NADPH", "measurement": "Ki", "value": "134 ± 56.6 µM"}
{"SMILES": "Cc1[nH]c(C)c(S(=O)(=O)Nc2ccc(S(F)(F)(F)(F)F)cc2)c1C(=O)N1CCC(F)(F)C1", "tested on": "DRD3 (Homo sapiens, UniProt P35462)", "assay": "β-arrestin recruitment, allosteric modulator, operational model of allostery", "setting": "added: pramipexole", "measurement": "Kb", "value": "0.81 µM"}
{"SMILES": "Cc1c(NC(=O)c2cc3c(s2)CCCC3)cccc1-c1cn(C)c(=O)c(Nc2ccc(C3C(=O)N(C)CCN3C)cc2)n1 (racemic)", "tested on": "BCHE", "assay": "inhibitor", "measurement": "IC50", "value": "6.6 ± 0.43 µM"}
{"SMILES": "COc1ccc(NC(=O)N2CCCCN3C[C@H](c4ccc(C#Cc5ccccc5)cc4)[C@@H]3C2)cc1", "tested on": "Cryptosporidium parvum", "assay": "luciferase", "system": "HCT-8, transgenic wild-type PheRS", "setting": "48 h", "measurement": "EC50", "value": "0.0408 µM"}
{"SMILES": "Clc1ccccc1CNCC1CCC(CNCc2ccccc2Cl)CC1 (centres unmarked)", "tested on": "BCHE", "assay": "inhibitor", "setting": "with Triton", "measurement": "IC50", "value": "20.9 ± 1.36 µM"}
{"SMILES": "C/C(=N\\N1CCN(Cc2ccccc2Cl)CC1)c1ccc([N+](=O)[O-])cc1", "tested on": "gag-pol integrase", "assay": "strand transfer activity, inhibitor", "setting": "wild-type integrase", "measurement": "IC50", "value": "> 100 µM"}
{"SMILES": "CC[C@H](NC(=O)[C@H](CS(=O)(=O)CC1CC1)N[C@@H](c1ccc(F)cc1)C(F)(F)F)C(=O)C(=O)NC1CC1", "tested on": "BCHE", "assay": "inhibitor", "setting": "with Triton", "measurement": "IC50", "value": "19.3 µM"}
{"SMILES": "COc1cc(Nc2ncc(F)c(Nc3ccc4c(n3)NC(=O)C(C)(C)O4)n2)cc(OC)c1OC", "tested on": "Renin (REN, Homo sapiens, UniProt P00797)", "measurement": "IC50", "value": "> 10 µM"}
{"SMILES": "O=C(CN1C2=NCCN2c2ccccc21)c1ccc(-c2ccccc2)cc1", "tested on": "BCHE", "assay": "inhibitor", "setting": "with Triton", "measurement": "IC50", "value": "7.2 ± 1.29 µM"}
{"SMILES": "O=C(N/N=C/c1cccnc1)C1=NNC2CCCCC12 (centres unmarked)", "tested on": "gag-pol integrase with LEDGF/p75", "assay": "LEDGF/p75-integrase interaction, inhibitor, AlphaScreen", "measurement": "IC50", "value": "> 50 µM"}
{"note": "For quick reference, copied from above:"}
{"SMILES": "C/C(=N\\N1CCN(Cc2ccccc2Cl)CC1)c1ccc([N+](=O)[O-])cc1", "tested on": "gag-pol integrase", "assay": "strand transfer activity, inhibitor", "setting": "wild-type integrase", "measurement": "IC50", "value": "> 100 µM"}
{"SMILES": "CCC1=C[C@@H]2CN3CCc4c([nH]c5ccccc45)[C@@](C(=O)OC)(C2)[C@@H]13", "tested on": "BCHE", "assay": "inhibitor", "measurement": "IC50", "value": "1.23 ± 0.17 µM"}
{"SMILES": "Cc1[nH]c(C)c(S(=O)(=O)Nc2ccc(S(F)(F)(F)(F)F)cc2)c1C(=O)N1CCC(F)(F)C1", "tested on": "DRD3 (Homo sapiens, UniProt P35462)", "assay": "β-arrestin recruitment, allosteric modulator, operational model of allostery", "setting": "added: pramipexole", "measurement": "Kb", "value": "0.81 µM"}
